Assay results pooled from the literature.
Protocols differ between the studies behind these lines. “And” joins repeats or separate records; there may be more than shown. ± marks the error that the study gave.

Compound	target or system	test system	conditions	how to read	measurement	result
C=CC(=O)N1CCC[C@@H](n2nc(-c3ccc(Oc4ccccc4)cc3)c3c(N)ncnc32)C1	–	Wistar rat, male, small intestine	oral, 50 mg/kg	–	Tmax	1 h
CCOc1c([C@H](C)n2nc(C)c3c(N)ncnc32)cc(Cl)c(F)c1[C@@H]1CNC(=O)C1	–	patients with B-cell malignancies, plasma	oral, 20 mg, day 15, monotherapy	–	Tmax	1 h
Cl.[2H]C([2H])([2H])CC(=O)c1cnc(NC(=O)C2CC2)cc1Nc1cccc(-c2ncn(C([2H])([2H])[2H])n2)c1OC	–	human, fasted, plasma	oral, 25 mg, single dose, liquid formulation	–	Tmax	0.75 h
C=CCn1c(=O)c2cnc(Nc3ccc(N4CCN(C)CC4)cc3)nc2n1-c1cccc(C(C)(C)O)n1	–	human	oral, 125 mg twice daily, cycle 1 day 17, together with: durvalumab 1500 mg IV	median	Tmax	2.5 h
CSc1ccccc1C(=O)NCCn1cc(C(=O)NCc2cccc(C)n2)c(=O)c2cc3c(cc21)OC(F)(F)O3	–	Sprague-Dawley rat, male, plasma	intravenous, 5 mg/kg of parent drug	–	Tmax	0.083 h
CCn1cc(C(=O)N2CCOCC2)c(=O)c2cc(NC3Cc4ccccc4C3)cnc21	–	human, fed	oral suspension, 300 mg/day twice daily, day 8, median	–	Tmax	4 h
C#CCCC(=O)SCCNC(=O)CCNC(=O)[C@H](O)C(C)(C)COP(=O)(O)OP(=O)(O)OC[C@H]1O[C@@H](n2cnc3c(N)ncnc32)[C@H](O)[C@@H]1OP(=O)(O)O	OCI-Ly1	–	1 µM, 120 h	–	viability	99.2%
CN1CCC[C@H](CN2c3ccccc3Sc3ccccc32)C1.Cl	–	Wistar rats, female, brain	oral, 16 mg/kg	–	Tmax	6 h
CCCCC1=NC2(CCCC2)C(=O)N1Cc1ccc(-c2ccccc2S(=O)(=O)Nc2noc(C)c2C)c(COCC)c1	–	healthy adult volunteers, plasma	oral, 200 mg, single dose, fed, crushed tablet	–	Tmax	4.26 h
Cc1cccc(CNC(=O)c2cn(CCNC(=O)c3ccccc3S)c3cc4c(cc3c2=O)OC(F)(F)O4)n1	–	Sprague-Dawley rat, male, whole blood	intramuscular, 30 mg/kg of parent drug	–	Tmax	0.833 ± 0.58 h
COc1cc2c(NC3CCN(C)CC3)nc(N3CCCN(C)CC3)nc2cc1OCCCN(C)C	OCI-Ly1	–	0.1 µM, 120 h	–	viability	195%
NC1(C(=O)N[C@@H](CCO)c2ccc(Cl)cc2)CCN(c2nc[nH]c3nccc2-3)CC1	–	human, plasma	–	–	Tmax	1 h and 2 h

For quick reference, copied from above:
Compound	target or system	test system	conditions	how to read	measurement	result
Cl.[2H]C([2H])([2H])CC(=O)c1cnc(NC(=O)C2CC2)cc1Nc1cccc(-c2ncn(C([2H])([2H])[2H])n2)c1OC	–	human, fasted, plasma	oral, 25 mg, single dose, liquid formulation	–	Tmax	0.75 h
